Assay results gathered from unrelated publications.
Protocols differ between the studies behind these lines. ± marks the error that the study gave.

With `COc1ncc(-c2nc3c(n2C(C)C)[C@H](c2ccc(Cl)cc2)N(c2cc(Cl)cn(C)c2=O)C3=O)c(OC)n1` the Cmax was 12 ng/mL (LC-MS/MS, noncompartmental; human, plasma; oral, 2 mg, C1D1, low-dose, geometric mean).
`C[C@@H]1CCO[C@H]2Cn3cc(C(=O)NCc4ccc(F)cc4F)c(=O)c(O)c3C(=O)N12` has a Cmax of 2750 ng/mL (human, body weight 10 to <14 kg, plasma; oral, 8 mg, granules, steady state).
`C[C@H]1CN(C(=O)CC#N)[C@]12CCN(c1ncnc3[nH]ccc13)C2` gave a Cmax of 7.22 ng/mL (healthy adults, plasma; oral, 1.5 mg single dose, day 1, geometric mean).
With `CCOc1c([C@H](C)n2nc(C)c3c(N)ncnc32)cc(Cl)c(F)c1[C@@H]1CNC(=O)C1` the Cmax was 856 ± 449 nM (patients, monotherapy; oral, 10 mg once daily, cycle 1 day 15).
`COCCOc1cnc2ccn([C@H](C)c3nnc4c(F)cc(-c5cnn(C)c5)cn34)c(=O)c2c1` gave a Cmax of 3040 ng/mL (patients, plasma; oral, 200 mg twice daily, day 28, 400 per day).
For `CSc1ccccc1C(=O)NCCn1cc(C(=O)NCc2cccc(C)n2)c(=O)c2cc3c(cc21)OC(F)(F)O3`, the Cmax was 4.75 ± 0.99 ng/mL (Sprague-Dawley rat, male, plasma; intramuscular, 10 mg/kg of parent drug).
The Cmax of `CCc1nc(C(N)=O)c(Nc2ccc(N3CCC(N4CCN(C)CC4)CC3)c(OC)c2)nc1NC1CCOCC1` is reported as 210 ng/mL (Japanese patients, plasma; oral, 200 mg, cycle 0 day -2, single dose, median).
For `Cc1cccc(CNC(=O)c2cn(CCNC(=O)c3ccccc3S)c3cc4c(cc3c2=O)OC(F)(F)O4)n1`, the Cmax was 5420 ± 552 ng/mL (Sprague-Dawley rat, male, plasma; intravenous, 20 mg/kg of parent drug).
`CN1CCC[C@H](CN2c3ccccc3Sc3ccccc32)C1.Cl` has a Cmax of 5620 ng/g (female Wistar rat, kidney; oral, 16 mg/kg).

Some of these lines once more:
For `Cc1cccc(CNC(=O)c2cn(CCNC(=O)c3ccccc3S)c3cc4c(cc3c2=O)OC(F)(F)O4)n1`, the Cmax was 5420 ± 552 ng/mL (Sprague-Dawley rat, male, plasma; intravenous, 20 mg/kg of parent drug).
